Earlier results, collected from citations in different studies.
Lines come from different studies, so protocols differ. Values joined by “and” are separate records of one study, mostly repeats; a detail may differ. ± gives the spread as reported.

SMILES | target or system | assay | test system | conditions | scale | measurement | value
C=C(C)[C@@H]1[C@H]2OC(=O)[C@@H]1[C@]1(O)C[C@H]3O[C@]34C(=O)O[C@H]2[C@]14C | GABA-A receptor | binding | – | 1 µM, together with: [3H]EBOB | – | inhibition | 51%
CC(C)(C)[C@H](NC(=O)C(F)(F)F)C(=O)N1C[C@H]2[C@@H]([C@H]1C(=O)N[C@H](C#N)C[C@@H]1CCNC1=O)C2(C)C | SARS-CoV-2 main protease T304I | – | – | – | – | Ki | 0.0009 µM
CN1CC[C@]23c4c5ccc(O)c4O[C@H]2[C@@H](O)C=C[C@H]3[C@H]1C5 | – | – | rat | subcutaneous | – | threshold dose for significant hypothermia | 30 mg/kg
O=CN1CC[C@]23c4c5ccc(O)c4O[C@H]2[C@@H](O)C=C[C@H]3[C@H]1C5 | mu opioid receptor | binding | – | – | – | Ki | 0.42 µM
COc1ccc(O)cc1 | – | – | – | – | – | pKa | 10.2
CN(C)C(=O)Oc1ccc[n+](C)c1 | HeLa | cytotoxicity, MTT | – | – | – | IC50 | 380 µM
COC(=O)[C@@H]1C[C@H](OC(=O)c2ccccc2)C(=O)[C@H]2[C@@]1(C)CC[C@H]1C(=O)O[C@H](c3ccoc3)C[C@]21C | mu opioid receptor | agonist, functional | – | – | – | EC50 | 0.5 µM
O=[As]c1ccccc1 (stereo not drawn) | rat Y2 receptor | – | rat forebrain cell aggregates | concentration not given | baseline: untreated | Y2 binding | ≤ 3 fold
CCOP(=O)(OCC)Oc1ccc([N+](=O)[O-])cc1 | AChE | – | chick cultured myoblasts | concentration not given | baseline: untreated control | AChE activity | 2 fold
Nc1nc2cc[nH]c2c(=O)[nH]1 | ricin toxin A chain | enzyme activity | – | – | – | IC50 | 1400 µM
Cl[C@H]1[C@H](Cl)[C@@H](Cl)[C@@H](Cl)[C@H](Cl)[C@H]1Cl | GABA-A receptor | binding | – | 1 µM, together with: [3H]EBOB | – | inhibition | 66%
CNC(=O)ON=CC(C)(C)SC | – | – | – | – | – | half-life | 30 to 40 min
O=c1c2ccccc2[se]n1-c1ccccc1 | Botulinum neurotoxin type A, light chain (Clostridium botulinum, UniProt P0DPI0) | irreversible inhibitor | – | – | – | kinact/Ki | 23000 M⁻¹ s⁻¹
Nc1nc2nc(C(=O)O)cnc2c(=O)[nH]1 | ricin A chain | – | – | – | – | IC50 | 200 µM and ~200 µM and 230 µM
O=C(NN1C(=O)[C@@H]2[C@@H]3C=C[C@@H]([C@H]4C[C@@H]34)[C@@H]2C1=O)c1ccc(C(F)(F)F)cc1 | monkeypox virus | viral replication | Vero E6 | – | – | EC50 | 0.006 ± 0.0002 µM
CCOP(=S)(CC)Sc1ccccc1 (stereo not drawn) | acetylcholinesterase | inhibitor, qHTS | – | concentration not given | – | activity | inactive
COP(=O)(OC)OC=C(Cl)Cl | AChE | – | mouse brain homogenate | concentration not given, 2 h, spontaneous reactivation | baseline: original activity | AChE activity recovered | 50%
O=C(NCc1cccs1)[C@@H]1CN(C(=O)c2cccnc2)CCN1c1ccc(Cl)c(Cl)c1 | human protease panel | – | – | off-target | – | IC50 | > 50 µM

Excerpt of the above:
SMILES | target or system | assay | test system | conditions | scale | measurement | value
CN(C)C(=O)Oc1ccc[n+](C)c1 | HeLa | cytotoxicity, MTT | – | – | – | IC50 | 380 µM
